# Published values pooled from the literature.
# Protocols differ between the studies behind these lines. ± marks the error that the study gave.
# Organism: Enterococcus faecium
SMILES,read-out,technique,strain,time,temperature,together with,MIC
CNC(CC(C)C)C(=O)NC1C(=O)NC(CC(N)=O)C(=O)NC2C(=O)NC3C(=O)NC(C(=O)NC(C(=O)NCCCNC(=N)N)c4cc(O)cc(O)c4-c4cc3ccc4O)C(O)c3ccc(c(Cl)c3)Oc3cc2cc(c3OC2OC(CO)C(O)C(O)C2OC2CC(C)(NCc3ccc(-c4ccc(Cl)cc4)cc3)C(O)C(C)O2)Oc2ccc(cc2Cl)C1O (stereo not drawn),,,ATCC BAA-2317 VanA,,,+NaH2PO4 100 µg/mL,0.3 µg/mL
CN(C)c1cc(CN2CCCC2)c(O)c2c1C[C@H]1C[C@H]3[C@H](N(C)C)C(O)=C(C(N)=O)C(=O)[C@@]3(O)C(O)=C1C2=O,,,"494, Tet M and Tet L",,,,2 µg/mL
C[n+]1ccc(/C=C2\Sc3ccccc3N2CCCN2CCCC2)c2ccccc21,microbial growth,broth dilution,ATCC49624,,,,16 µg/mL
CCOC(=O)c1ccc2c(c1)n(CC)[c]([Au-][Cl])[n+]2CC,,broth dilution,DSM 20477,20 h,37 °C,,5.6 ± 2.4 µM
CNC(CC(C)C)C(=O)NC1C(=O)NC(CC(N)=O)C(=O)NC2C(=O)NC3C(=O)NC(C(=O)NC(C(=O)NCCCCNC(=N)N)c4cc(O)cc(O)c4-c4cc3ccc4O)C(O)c3ccc(c(Cl)c3)Oc3cc2cc(c3OC2OC(CO)C(O)C(O)C2OC2CC(C)(N)C(O)C(C)O2)Oc2ccc(cc2Cl)C1O (stereo not drawn),,broth microdilution,ATCC BAA-2317 VanA,,,,4 µg/mL
CCN(CC)CCCN1/C(=C/c2cc[n+](C)c3ccccc23)Sc2ccccc21,microbial growth,broth dilution,ATCC49624,,,,8 µg/mL
CNCc1cc(N(C)C)c2c(c1O)C(=O)C1=C(O)[C@]3(O)C(=O)C(C(N)=O)=C(O)[C@@H](N(C)C)[C@@H]3C[C@@H]1C2,,,"494, Tet M and Tet L",,,,8 µg/mL
CNC(CC(C)C)C(=O)NC1C(=O)NC(CC(N)=O)C(=O)NC2C(=O)NC3C(=O)NC(C(=O)NC(C(=O)NCCCNC(=N)N)c4cc(O)cc(O)c4-c4cc3ccc4O)C(O)c3ccc(c(Cl)c3)Oc3cc2cc(c3OC2OC(CO)C(O)C(O)C2OC2CC(C)(N)C(O)C(C)O2)Oc2ccc(cc2Cl)C1O (stereo not drawn),,,ATCC BAA-2317 VanA,,,+LTA 100 µg/mL,8 µg/mL
CN1/C(=C/C=C/c2cc(-c3ccccc3)cc(-c3ccccc3)[o+]2)C(C)(C)c2ccccc21,microbial growth,broth dilution,VRE,,,,0.16 µg/mL
CN(C)c1cc(CNC(=O)OCC(C)(C)C)c(O)c2c1C[C@H]1C[C@H]3[C@H](N(C)C)C(O)=C(C(N)=O)C(=O)[C@@]3(O)C(O)=C1C2=O,,,"494, Tet M and Tet L",,,,4 µg/mL
CC1=CC2(C)C(=C(C)C3C4CC(C)CC(C)C4C4Oc5ccc(cc5)CC5(O)NC(=O)C(=C(O)C2C43)C5Nc2ncnc3c2ncn3C2OC(CO)C(O)C2O)C1C (stereo not drawn),microbial growth,broth dilution,ATCC35667,,,,12.5 µM
CC[P+](CC)(CC)[Au-][S][C@@H]1O[C@H](COC(C)=O)[C@@H](O[C@@H]2O[C@H](COC(C)=O)[C@H](OC(C)=O)[C@H](OC(C)=O)[C@H]2OC(C)=O)[C@H](OC(C)=O)[C@H]1OC(C)=O,,,ATCC 700221,,,,0.1 µM
C=C(NC(=O)C(=C)NC(=O)c1csc(C2=NC3c4csc(n4)C4NC(=O)c5csc(n5)C(C(C)(O)C(C)O)NC(=O)C5CSC(=N5)C(=CC)NC(=O)C(C(C)O)NC(=O)c5csc(n5)C3(CC2)NC(=O)C(C)NC(=O)C(=C)NC(=O)C(=CC)NC(=O)C(C(C)CC)NC2C=Cc3c(C(C)O)cc(nc3C2O)C(=O)OC4C)n1)C(N)=O (stereo not drawn),,broth microdilution,ATCC 12952 VRE,18 h,37 °C,,0.11 µg/mL
COCCNCc1cc(N(C)C)c2c(c1O)C(=O)C1=C(O)[C@]3(O)C(=O)C(C(N)=O)=C(O)[C@@H](N(C)C)[C@@H]3C[C@@H]1C2,,,"494, Tet M and Tet L",,,,1 µg/mL
Cc1ccc2ccc3ccc(C)nc3c2n1.Cc1ccc2ccc3ccc(C)nc3c2n1.O.[Cl-].[Cl-].[Cl-].[Yb+3],,,,,,,125 µg/mL
CNC(CC(C)C)C(=O)NC1C(=O)NC(CC(N)=O)C(=O)NC2C(=O)NC3C(=O)NC(C(=O)NC(C(=O)NCCNC(=N)N)c4cc(O)cc(O)c4-c4cc3ccc4O)C(O)c3ccc(c(Cl)c3)Oc3cc2cc(c3OC2OC(CO)C(O)C(O)C2OC2CC(C)(N)C(O)C(C)O2)Oc2ccc(cc2Cl)C1O (stereo not drawn),,broth microdilution,ATCC BAA-2317 VanA,,,,4 µg/mL
CN(C)c1cc(CNCC2CCCCC2)c(O)c2c1C[C@H]1C[C@H]3[C@H](N(C)C)C(O)=C(C(N)=O)C(=O)[C@@]3(O)C(O)=C1C2=O,,,"494, Tet M and Tet L",,,,2 µg/mL
CCOC(=O)c1ccc2c(c1)n(CC)[c]([Au-]([Cl])([Cl])[Cl])[n+]2CC,,broth dilution,DSM 20477,20 h,37 °C,,3.6 µM
CCC1(C)CCN(Cc2cc(N(C)C)c3c(c2O)C(=O)C2=C(O)[C@]4(O)C(=O)C(C(N)=O)=C(O)[C@@H](N(C)C)[C@@H]4C[C@@H]2C3)CC1,,,"494, Tet M and Tet L",,,,1 µg/mL
CC(C)C[C@H](NC(=O)[C@H](CC(N)=O)NC(=O)[C@H](CCCNC(=N)N)NC(=O)[C@@H](CC(C)C)NC(=O)[C@H](Cc1ccccc1)NC(=O)[C@H](CC(=O)O)NC(=O)[C@H](CCCCN)NC(=O)[C@@H](CC(C)C)NC(=O)[C@H](CCCNC(=N)N)NC(=O)[C@H](CCC(N)=O)NC(=O)[C@@H](NC(=O)[C@@H](CC(C)C)NC(=O)[C@H](CCCNC(=N)N)NC(=O)[C@H](CCCCN)NC(=O)[C@H](Cc1ccc(-c2ccccc2)cc1)NC(=O)CN)C(C)C)C(=O)N[C@H](C(N)=O)C(C)C,,broth microdilution,ATCC 51559,,,,12.5 µM
CN(C)c1cc(CNc2ccccc2)c(O)c2c1C[C@H]1C[C@H]3[C@H](N(C)C)C(O)=C(C(N)=O)C(=O)[C@@]3(O)C(O)=C1C2=O,,,"494, Tet M and Tet L",,,,1 µg/mL
C=C(NC(=O)C(=C)NC(=O)c1csc(C2=NC3c4csc(n4)C4NC(=O)c5csc(n5)C(C(C)(O)C(C)O)NC(=O)C5CSC(=N5)C(=CC)NC(=O)C(C(C)O)NC(=O)c5csc(n5)C3(CC2)NC(=O)C(C)NC(=O)C(=C)NC(=O)CNC(=O)C(C(C)CC)NC2C=Cc3c(C(C)O)cc(nc3C2O)C(=O)OC4C)n1)C(N)=O (stereo not drawn),,broth microdilution,ATCC 12952 VRE,18 h,37 °C,,0.019 µg/mL
CN(C)c1cc(CNC(C)(C)C)c(O)c2c1C[C@H]1C[C@H]3[C@H](N(C)C)C(O)=C(C(N)=O)C(=O)[C@@]3(O)C(O)=C1C2=O,,,"494, Tet M and Tet L",,,,8 µg/mL
CC(C)C[C@H](NC(=O)[C@H](CC(N)=O)NC(=O)[C@H](CCCNC(=N)N)NC(=O)[C@@H](CC(C)C)NC(=O)[C@H](Cc1ccccc1)NC(=O)[C@H](CC(=O)O)NC(=O)[C@H](CCCCN)NC(=O)[C@@H](CC(C)C)NC(=O)[C@H](CCCNC(=N)N)NC(=O)[C@H](CCC(N)=O)NC(=O)[C@@H](NC(=O)[C@@H](CC(C)C)NC(=O)[C@H](CCCNC(=N)N)NC(=O)[C@H](CCCCN)NC(=O)[C@H](Cc1ccc(C(F)(F)F)cc1)NC(=O)CN)C(C)C)C(=O)N[C@H](C(N)=O)C(C)C,,broth microdilution,ATCC 51559,,,,25 to 50 µM
